# Measurements pooled from the literature.
# Parts stem from different laboratories: compare values within a part only. Positions count from the first letter of the parent shown.

# Series 1
# Target: Centromere-binding protein 1, full length, N-terminal tag (CBF1, Saccharomyces cerevisiae, UniProt P17106, residues 1-351)
# Chain of UniProt P17106 (whole entry, looked up): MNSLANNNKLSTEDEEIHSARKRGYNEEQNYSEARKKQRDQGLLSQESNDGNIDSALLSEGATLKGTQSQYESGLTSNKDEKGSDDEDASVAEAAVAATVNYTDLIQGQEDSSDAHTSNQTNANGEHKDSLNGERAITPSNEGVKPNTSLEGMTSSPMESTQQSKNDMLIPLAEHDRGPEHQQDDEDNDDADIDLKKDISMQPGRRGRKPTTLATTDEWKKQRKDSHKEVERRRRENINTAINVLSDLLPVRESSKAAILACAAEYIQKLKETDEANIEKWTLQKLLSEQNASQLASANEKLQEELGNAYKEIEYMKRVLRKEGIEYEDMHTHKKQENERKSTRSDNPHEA
# Method: protein-binding microarray
# Form: double-stranded DNA, one strand shown
# Medium: in vitro
# Concentration: 0.8 µM
# Setting: whole 60-bp probe, no competitor
# Direction: higher = stronger binding
Strand,fluorescence intensity [a.u.]
CTAGCACAAAAAGCTGACATCAGGAAGAAAATCTTCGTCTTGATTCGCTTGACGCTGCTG,499
CTATCACGGAACATAACCGTGATTGAAAATTACTTCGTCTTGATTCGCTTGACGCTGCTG,881
GAAATCTTTTTTTTTTGCGTGATCTTTATCAATTAGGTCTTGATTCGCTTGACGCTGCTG,682
CTAGCTTCCTTTACTGTCACGAGCGGCCCATAATTCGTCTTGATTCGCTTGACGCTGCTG,1380
CTATCCCCCAGACACCACCTCTTTTGTTCACTTTTCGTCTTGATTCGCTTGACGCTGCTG,512
CTAATCGAGTGAAGTATCGTGACTTGTACATTTTTCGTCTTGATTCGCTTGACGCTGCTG,1380
CTACCCTCCTGCGGGCACGCATGCGCCTTTGATTTCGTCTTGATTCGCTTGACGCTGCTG,546
GAAAAAAGTGTCCATGTGATGGGAGGGATCATATAGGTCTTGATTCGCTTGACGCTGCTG,1780

# Series 2
# Target: ABI1, truncated, D143A, DHFR fusion (Arabidopsis thaliana)
# Method: DHFR PCA, deep sequencing
# Medium: yeast
# Setting: methotrexate growth selection, single substitutions
# With: (+)-ABA 17 µM
# Baseline: wild-type fitted maximum
# Direction: higher = stronger binding
# Parent: PYL1, truncated, DHFR fusion (Arabidopsis thaliana); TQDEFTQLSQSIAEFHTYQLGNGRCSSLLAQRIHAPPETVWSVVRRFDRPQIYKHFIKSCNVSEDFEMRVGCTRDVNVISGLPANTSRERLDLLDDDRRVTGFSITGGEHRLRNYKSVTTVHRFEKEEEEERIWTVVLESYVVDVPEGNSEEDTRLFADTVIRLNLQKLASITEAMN; partner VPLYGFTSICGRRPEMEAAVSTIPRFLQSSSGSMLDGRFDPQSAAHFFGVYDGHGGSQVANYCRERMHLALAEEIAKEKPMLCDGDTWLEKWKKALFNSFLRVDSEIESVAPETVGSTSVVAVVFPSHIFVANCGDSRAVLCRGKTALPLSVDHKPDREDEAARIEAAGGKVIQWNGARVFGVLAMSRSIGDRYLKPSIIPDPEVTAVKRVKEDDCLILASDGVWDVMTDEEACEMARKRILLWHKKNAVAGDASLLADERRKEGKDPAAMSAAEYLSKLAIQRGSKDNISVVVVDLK
Substitution,relative binding score
H122K,9.87%
S11A,82.8%
F47I,7.82%
C60H,9.44%
R99G,38.7%
H122F,-2.12%

# Series 3
# Target: RNA binding protein fox-1 homolog 2, RRM domain, GST-SBP tag (RBFOX2, Homo sapiens, UniProt O43251-10, residues 100-194)
# Method: RNA Bind-n-Seq
# Form: RNA
# Medium: in vitro
# Concentration: 365 nM
# Setting: natural RNA segment, single round, ends assumed
# Baseline: no-protein control
# Direction: higher = stronger binding
Strand,RBNS enrichment (R)
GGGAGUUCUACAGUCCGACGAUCGCUUUGGCAUCCAGAGCAUAAGAGAUGAAUGCAGCUACCCUGUGCCAUCCUACUAUAAUAAAUUUUGCACCCACACACAAGUACACAGUUUGCUGUUUUAGAAAGUGAUUUGGAAUUCUCGGGUGCCAA,0.919
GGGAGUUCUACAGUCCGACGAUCAAAAAAGUCAAGAAACUUUGUAAAAUAUCGUGUGUGUGAUUCCUUGUAAAAUAUUUUCAAAUGGUUUAUUACAGAAGAUCAGUUAUUAAAUAAUGUUCAUAUUUUCACUUUGGAAUUCUCGGGUGCCAA,1.38
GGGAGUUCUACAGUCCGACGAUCAUGUAGCGAUAUUAAAAAAAAUGUAGCGAUAUAAUUAACCAGCCAUUAAAAAUUUACUUCUACAGAUUUAGUGUCAGUUGAAUUUUAUGUAUUAGGUUCUCAUAUACUGCUGGAAUUCUCGGGUGCCAA,0.609
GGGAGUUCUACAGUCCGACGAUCGUCCUCACCAACACUUGUGAUUAUGUGUCUUUUAAAAUUAUAGCCAUCCUUGUGGAUGUGAAGUGGUAACUCAUUGUGGCUUUGAUUUACAUUUCCUUGAUAGCUAAUGAUGGAAUUCUCGGGUGCCAA,0.45
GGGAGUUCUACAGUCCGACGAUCUAAAUAAAUACCAUGACUGGCUUUGGGAGAAUCAUGAAAAAUUAAGUCUAUCUUGAAGCUGCCUGUUUGAAGUUUCCCAUGCGUCGCCUUGUGCUUCGGUUUCUAAGGGCUGGAAUUCUCGGGUGCCAA,0.728
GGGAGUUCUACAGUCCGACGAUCUUCUUGUCCCUGGCGCUGGCUAAAAAUAGCUCGUUUCCAGAUGCUUUUGUAGAUGACUGAAGUAUUGUAAGGCGCAGUCAGGAGCUCUGGACUCGAGAACGGCAGAAAGGUGGAAUUCUCGGGUGCCAA,0.626
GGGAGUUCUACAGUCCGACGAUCCUCAUCCAAACAAUUUAAAAAUGAGUGUGAAGGGGGAACAAGUCAAAAUAUUUUUAAAAGAUCUUCAAAAGUAAUGCCUCUGUCUAGCAUGCCAACAAGAAUGCAUUGAUUGGAAUUCUCGGGUGCCAA,13.6
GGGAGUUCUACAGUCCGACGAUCACAUUGCACACACUGUAAGAAAUGCACUUUCCGAGGAAGGGGAUGGGGGAGCCCGGACACCCAGAGCUCCCCGAGUUGGGGGUGCCCGUCUGGAGCGCCCCCGUCAGCCCUGGAAUUCUCGGGUGCCAA,0.449

# Single results of other studies
Substance,target,test,system,setting,scale,endpoint,value
"PhoQ, residues 284 288 289 292 302 303 NLAAMI","PhoP, residues 12 14 15 18 19 LWHVM (Escherichia coli, UniProt P23836)","Sort-seq, item: YFP reporter",E. coli,"PhoQ-PhoP variant library, with: 10 µM Mg2+","baseline: high Mg2+ state, higher = stronger signaling",fold induction,0.718

# A few entries again (series 2):
Substitution,relative binding score
H122F,-2.12%
